Experimental data gathered from unrelated publications.
A part holds a random share of what one study measured. Several values in a cell are separate wells, animals, samples, runs or records.
UniProt O95819, sequence (whole entry, looked up): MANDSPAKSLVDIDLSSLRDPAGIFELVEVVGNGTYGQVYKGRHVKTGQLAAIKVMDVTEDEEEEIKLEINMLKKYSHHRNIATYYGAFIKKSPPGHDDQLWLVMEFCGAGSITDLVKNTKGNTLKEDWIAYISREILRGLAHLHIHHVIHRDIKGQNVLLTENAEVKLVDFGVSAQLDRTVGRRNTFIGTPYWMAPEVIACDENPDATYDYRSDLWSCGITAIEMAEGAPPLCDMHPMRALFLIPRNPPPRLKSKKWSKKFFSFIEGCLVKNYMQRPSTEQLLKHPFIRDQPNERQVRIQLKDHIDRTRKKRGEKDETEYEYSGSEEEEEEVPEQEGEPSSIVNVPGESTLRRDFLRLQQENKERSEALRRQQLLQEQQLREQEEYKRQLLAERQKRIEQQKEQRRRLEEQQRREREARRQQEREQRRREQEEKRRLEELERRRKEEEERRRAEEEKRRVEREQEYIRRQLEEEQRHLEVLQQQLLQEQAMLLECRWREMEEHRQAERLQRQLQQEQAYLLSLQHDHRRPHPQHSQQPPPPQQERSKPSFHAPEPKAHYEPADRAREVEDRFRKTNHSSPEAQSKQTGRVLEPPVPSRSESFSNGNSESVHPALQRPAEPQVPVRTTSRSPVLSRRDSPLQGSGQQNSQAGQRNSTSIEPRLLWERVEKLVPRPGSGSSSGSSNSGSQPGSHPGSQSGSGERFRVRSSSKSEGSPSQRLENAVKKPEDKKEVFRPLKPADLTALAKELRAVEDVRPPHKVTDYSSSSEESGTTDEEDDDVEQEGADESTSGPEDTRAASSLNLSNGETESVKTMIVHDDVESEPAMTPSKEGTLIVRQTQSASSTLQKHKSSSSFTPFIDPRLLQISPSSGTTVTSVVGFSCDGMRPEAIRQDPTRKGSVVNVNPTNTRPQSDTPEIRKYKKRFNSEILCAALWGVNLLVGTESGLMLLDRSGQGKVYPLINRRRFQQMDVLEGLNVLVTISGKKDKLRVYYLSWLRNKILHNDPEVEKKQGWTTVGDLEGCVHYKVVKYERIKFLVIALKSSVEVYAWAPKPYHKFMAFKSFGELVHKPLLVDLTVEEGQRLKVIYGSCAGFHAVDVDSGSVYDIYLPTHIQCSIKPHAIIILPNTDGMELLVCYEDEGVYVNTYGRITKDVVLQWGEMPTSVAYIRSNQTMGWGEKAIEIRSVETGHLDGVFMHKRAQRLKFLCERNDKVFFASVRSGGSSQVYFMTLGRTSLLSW
UniProt P37173, sequence (whole entry, looked up): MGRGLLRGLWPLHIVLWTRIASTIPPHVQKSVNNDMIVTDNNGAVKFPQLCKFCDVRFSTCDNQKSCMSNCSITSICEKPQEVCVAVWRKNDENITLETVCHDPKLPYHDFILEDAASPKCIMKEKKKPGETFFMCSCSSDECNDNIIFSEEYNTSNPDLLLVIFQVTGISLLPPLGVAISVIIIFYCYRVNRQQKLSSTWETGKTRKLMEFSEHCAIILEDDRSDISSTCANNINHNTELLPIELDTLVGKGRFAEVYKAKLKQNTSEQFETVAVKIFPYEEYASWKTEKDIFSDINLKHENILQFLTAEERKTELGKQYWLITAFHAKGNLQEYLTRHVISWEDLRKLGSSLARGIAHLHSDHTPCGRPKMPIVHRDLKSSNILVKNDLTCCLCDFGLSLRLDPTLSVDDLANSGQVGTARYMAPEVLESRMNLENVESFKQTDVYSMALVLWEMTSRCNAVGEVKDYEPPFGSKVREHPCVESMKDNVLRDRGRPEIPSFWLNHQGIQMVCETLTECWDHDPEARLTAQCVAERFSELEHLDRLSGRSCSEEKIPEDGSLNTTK

Block 1
SMILES: CC(C)n1cnc(-c2ccc(F)cc2)c1-c1ncc(C(=O)Nc2ccc(N3CCN(C)CC3)cc2)[nH]1
assay | system | conditions | patients with adverse event [%]
Phase 2a trial, measured: hyperlipidaemia | human, idiopathic pulmonary fibrosis | 30 mg once daily, grade 5 | 0
measured: periorbital oedema, grade 1 | idiopathic pulmonary fibrosis patients | oral, 30 mg once daily | 0
Phase 2a trial, measured: hypercholesterolaemia | human, idiopathic pulmonary fibrosis | all compound arms total, grade 5 | 0
Phase 2a trial, measured: hypokalaemia | human, idiopathic pulmonary fibrosis | 60 mg once daily, grade 5 | 0
measured: prostatic calcification, maximum grade 4 | idiopathic pulmonary fibrosis patients | oral, 60 mg once daily | 0
Phase 2a trial, measured: blood creatinine increased | human, idiopathic pulmonary fibrosis | 30 mg once daily, grade 4 | 0
Phase 2a trial, measured: hypoalbuminaemia | human, idiopathic pulmonary fibrosis | 30 mg once daily, grade 1 | 0
Phase 2a trial, measured: hepatic steatosis | human, idiopathic pulmonary fibrosis | all compound arms total, grade 2 | 0
Phase 2a trial, measured: blood glucose increased | human, idiopathic pulmonary fibrosis | 60 mg once daily, grade 5 | 0
measured: abnormal liver function test, grade 5 | idiopathic pulmonary fibrosis patients | oral, 30 mg once daily | 0
Phase 2a trial, measured: blood creatine phosphokinase increased | human, idiopathic pulmonary fibrosis | all compound arms total, grade 5 | 0
Phase 2a trial, measured: hypokalaemia | human, idiopathic pulmonary fibrosis | 60 mg once daily, grade 4 | 0
Phase 2a trial, measured: hyperuricaemia | human, idiopathic pulmonary fibrosis | 30 mg once daily, grade 3 | 0
Phase 2a trial, measured: eosinophilia myalgia syndrome | human, idiopathic pulmonary fibrosis | all compound arms, grade 5 | 0
Phase 2a trial, measured: blood creatine phosphokinase increased | human, idiopathic pulmonary fibrosis | all compound arms total, grade 4 | 0
Phase 2a trial, measured: blood fibrinogen increased | human, idiopathic pulmonary fibrosis | all compound arms total, grade 5 | 0
Phase 2a trial, measured: hypoalbuminaemia | human, idiopathic pulmonary fibrosis | 30 mg once daily, grade 5 | 0
Phase 2a trial, measured: hypoalbuminaemia | human, idiopathic pulmonary fibrosis | all compound arms total, grade 4 | 0

Block 2 — action: inhibitor; tested at: concentration not given; together with: without ssDNA
Target: DNA polymerase theta, helicase domain (POLQ, Homo sapiens, UniProt O75417)
UniProt O75417, sequence (whole entry, looked up): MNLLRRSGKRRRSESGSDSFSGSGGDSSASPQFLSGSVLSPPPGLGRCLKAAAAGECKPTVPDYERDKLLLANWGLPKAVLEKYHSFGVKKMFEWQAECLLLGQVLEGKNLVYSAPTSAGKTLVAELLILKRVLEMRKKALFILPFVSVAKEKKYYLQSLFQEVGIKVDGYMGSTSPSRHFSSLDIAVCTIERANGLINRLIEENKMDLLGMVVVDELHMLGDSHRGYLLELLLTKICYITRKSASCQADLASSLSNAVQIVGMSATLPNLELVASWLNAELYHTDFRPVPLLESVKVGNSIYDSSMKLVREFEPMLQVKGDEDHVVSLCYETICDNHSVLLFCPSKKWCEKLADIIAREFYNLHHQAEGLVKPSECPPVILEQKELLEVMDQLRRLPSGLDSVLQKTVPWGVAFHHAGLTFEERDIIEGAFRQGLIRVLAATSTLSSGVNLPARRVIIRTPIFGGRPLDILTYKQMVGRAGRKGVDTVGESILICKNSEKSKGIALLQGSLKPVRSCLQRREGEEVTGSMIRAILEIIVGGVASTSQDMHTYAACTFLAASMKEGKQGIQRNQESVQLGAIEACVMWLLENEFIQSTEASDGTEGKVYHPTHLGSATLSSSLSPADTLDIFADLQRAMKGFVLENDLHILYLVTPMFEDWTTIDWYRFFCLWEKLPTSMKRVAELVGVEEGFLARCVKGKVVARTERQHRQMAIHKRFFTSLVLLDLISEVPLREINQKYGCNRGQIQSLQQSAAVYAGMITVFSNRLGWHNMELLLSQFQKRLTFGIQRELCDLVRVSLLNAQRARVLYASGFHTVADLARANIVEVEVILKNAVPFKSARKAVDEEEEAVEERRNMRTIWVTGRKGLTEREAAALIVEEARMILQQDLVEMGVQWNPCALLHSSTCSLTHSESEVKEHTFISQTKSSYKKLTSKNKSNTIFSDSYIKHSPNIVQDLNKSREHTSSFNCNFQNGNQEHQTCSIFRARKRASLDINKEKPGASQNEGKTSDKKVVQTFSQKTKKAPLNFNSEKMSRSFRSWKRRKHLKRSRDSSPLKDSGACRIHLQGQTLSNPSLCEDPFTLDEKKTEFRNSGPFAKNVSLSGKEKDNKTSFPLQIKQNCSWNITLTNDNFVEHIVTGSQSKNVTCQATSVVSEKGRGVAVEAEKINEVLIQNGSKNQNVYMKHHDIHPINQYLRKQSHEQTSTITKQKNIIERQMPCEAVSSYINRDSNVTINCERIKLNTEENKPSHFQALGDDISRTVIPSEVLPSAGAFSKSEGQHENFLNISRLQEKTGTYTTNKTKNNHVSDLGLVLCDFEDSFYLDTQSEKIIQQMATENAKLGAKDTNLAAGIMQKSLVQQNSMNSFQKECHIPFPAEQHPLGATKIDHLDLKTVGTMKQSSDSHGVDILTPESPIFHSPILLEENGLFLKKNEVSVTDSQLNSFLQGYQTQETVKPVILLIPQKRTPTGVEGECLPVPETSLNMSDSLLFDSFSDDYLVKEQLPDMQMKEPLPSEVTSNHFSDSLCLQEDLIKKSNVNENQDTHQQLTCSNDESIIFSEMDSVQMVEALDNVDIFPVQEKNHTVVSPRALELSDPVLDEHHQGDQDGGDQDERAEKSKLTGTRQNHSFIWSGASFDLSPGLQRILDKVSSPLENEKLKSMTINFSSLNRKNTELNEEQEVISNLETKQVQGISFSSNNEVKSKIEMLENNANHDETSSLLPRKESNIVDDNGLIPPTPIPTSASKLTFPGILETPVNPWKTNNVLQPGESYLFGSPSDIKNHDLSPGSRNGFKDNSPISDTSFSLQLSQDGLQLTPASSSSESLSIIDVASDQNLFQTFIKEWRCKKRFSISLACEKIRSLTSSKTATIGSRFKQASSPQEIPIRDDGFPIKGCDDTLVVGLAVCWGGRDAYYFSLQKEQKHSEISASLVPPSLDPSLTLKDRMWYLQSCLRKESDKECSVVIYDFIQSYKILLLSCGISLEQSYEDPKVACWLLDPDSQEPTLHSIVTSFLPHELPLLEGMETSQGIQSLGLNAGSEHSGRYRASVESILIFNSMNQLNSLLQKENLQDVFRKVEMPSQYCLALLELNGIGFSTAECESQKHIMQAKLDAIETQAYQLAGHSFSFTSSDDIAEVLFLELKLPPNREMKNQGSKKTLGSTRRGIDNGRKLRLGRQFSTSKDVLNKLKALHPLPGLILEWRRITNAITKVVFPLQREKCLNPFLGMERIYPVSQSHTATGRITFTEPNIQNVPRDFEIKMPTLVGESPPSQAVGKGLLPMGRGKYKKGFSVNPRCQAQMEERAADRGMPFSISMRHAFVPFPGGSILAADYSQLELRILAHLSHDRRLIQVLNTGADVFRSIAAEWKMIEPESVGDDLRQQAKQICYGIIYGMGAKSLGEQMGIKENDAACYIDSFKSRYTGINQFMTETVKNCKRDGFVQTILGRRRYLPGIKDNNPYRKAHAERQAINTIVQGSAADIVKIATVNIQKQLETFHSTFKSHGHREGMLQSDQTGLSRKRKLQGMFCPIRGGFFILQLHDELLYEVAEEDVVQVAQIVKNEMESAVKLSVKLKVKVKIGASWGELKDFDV
SMILES | remaining activity
COC(=O)c1cc(Cl)ccc1NC(=O)CSc1ncc(S(=O)(=O)c2ccc(Br)cc2)c(=O)[nH]1 | 90.8% and 89.4%
CC1=Nc2cc(C(=O)NCCc3ccc(Cl)cc3)ccc2Sc2ccc(C)cc21 | 65% and 60%
Cc1ccc(-c2n[nH]c3c2C(c2ccccc2Cl)N(c2ccc(C(=O)O)cc2)C3=O)cc1 (stereo not shown) | 87.5% and 81.7%
CCOc1ccc2nc3cc(N)ccc3c(N)c2c1 | 103% and 95.2%
COc1ccc2c(c1)c(CC(=O)O)c(C)n2Cc1ccc(Cl)cc1 | 63.8% and 64.2%
CCCCCCCCCCC/C=C\C(C)(C)/C=C\CCCC(=O)O | 106% and 97.2%
C[C@H]1[C@H](C)CC[C@]2(C(=O)O)CC[C@]3(C)C(=CC[C@@H]4[C@@]5(C)C[C@@H](O)[C@H](O)[C@@](C)(CO)[C@@H]5CC[C@]43C)[C@H]12 | 57% and 57.4%
Cc1ccc(C(=O)Nc2ccccc2C(=O)O)cc1S(=O)(=O)N1CCCCCC1 | 65% and 64.2%
C/C(O)=C(\C#N)C(=O)Nc1ccc(C(F)(F)F)cc1 | 34.8% and 34.2%
CCOc1nc2cccc(C(=O)OCc3oc(=O)oc3C)c2n1Cc1ccc(-c2ccccc2-c2noc(=O)[nH]2)cc1 | 56.4% and 52.7%
COc1cc2c(cc1Cc1cccc(Cl)c1F)c(=O)c(C(=O)O)cn2[C@H](CO)C(C)C | 33%
CCOc1cccc2c1N[C@@H](c1ccc(C(=O)O)cc1)[C@H]1CC=C[C@@H]21 | 62.4% and 66.8%

Block 3 — read-out: enzyme activity; action: inhibitor; tested at: 0.5 µM; baseline: control
Target: RAF proto-oncogene serine/threonine-protein kinase (RAF1, Homo sapiens, UniProt P04049)
UniProt P04049, sequence (whole entry, looked up): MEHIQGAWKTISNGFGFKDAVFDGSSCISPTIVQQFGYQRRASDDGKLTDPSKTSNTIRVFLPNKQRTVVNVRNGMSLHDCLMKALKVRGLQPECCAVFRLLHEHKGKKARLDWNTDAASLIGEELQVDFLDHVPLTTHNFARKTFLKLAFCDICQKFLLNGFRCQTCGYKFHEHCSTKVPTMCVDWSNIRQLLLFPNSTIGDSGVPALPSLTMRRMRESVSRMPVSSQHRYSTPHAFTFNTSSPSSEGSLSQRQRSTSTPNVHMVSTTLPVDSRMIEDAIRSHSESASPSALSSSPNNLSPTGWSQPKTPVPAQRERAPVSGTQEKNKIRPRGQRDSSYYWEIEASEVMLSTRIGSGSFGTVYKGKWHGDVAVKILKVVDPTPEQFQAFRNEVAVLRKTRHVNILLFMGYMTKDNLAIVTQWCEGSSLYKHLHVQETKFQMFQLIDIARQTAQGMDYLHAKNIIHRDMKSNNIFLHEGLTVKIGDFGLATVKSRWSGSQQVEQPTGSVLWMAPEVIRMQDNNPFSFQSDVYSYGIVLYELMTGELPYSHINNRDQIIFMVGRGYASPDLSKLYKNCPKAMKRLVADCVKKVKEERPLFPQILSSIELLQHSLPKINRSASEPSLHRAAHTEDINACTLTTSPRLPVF
Structure (SMILES) | remaining activity
Cc1ccc(S(=O)(=O)/C=C/C#N)cc1 | 104%
CN(C)S(=O)(=O)c1ccc2c(c1)/C(=C/c1cc3c([nH]1)CCCC3)C(=O)N2 | 97.7%
COc1cccc(-c2cc(=O)c3ccccc3o2)c1N | 91.5%
CCCNC(=O)Nc1ccc(Oc2ncnc3cc(OC)c(OC)cc23)cc1Cl | 85.4%
O=C1Nc2ccc(Br)cc2/C1=C/c1cc2c([nH]1)CCCC2 | 88.2%
c1ccc(-c2n[nH]c3c2oc2ccccc23)cc1 | 94.9%
O=C(c1cc2cc(O)ccc2[nH]1)c1cc2cc(O)ccc2[nH]1 | 104%
CN1CCN(c2ccc3nc(-c4c(N)c5c(F)cccc5[nH]c4=O)[nH]c3c2)CC1 | 115%
O=C1Nc2ccccc2/C1=C\c1c(Cl)[nH]c2ccccc12 | 89.9%
CCCCc1c(-c2ccc(OC)cc2)[nH]c2nccnc12 | 99.9%
O=C1NC(=O)c2c1c1c3ccccc3[nH]c1n1cncc21 | 108%
c1ccc2c(-c3ccncc3)c[nH]c2c1 | 93.2%
Cc1cc(Nc2cc(N3CCN(C)CC3)nc(Sc3ccc(NC(=O)C4CC4)cc3)n2)[nH]n1 | 117%
O=C1NC(=O)c2c1c1c3ccccc3[nH]c1c1[nH]c3cc(Br)ccc3c21 | 97.8%
N#Cc1cnc2cnc(NCc3cccnc3)cc2c1Nc1ccc(F)c(Cl)c1 | 90.9%
COc1ccc2c(c1)c(C1=C(c3c[nH]c4ccccc34)C(=O)NC1=O)cn2CCCN(C)C | 99.3%
O=Nc1c(-c2c(O)[nH]c3cc(Br)ccc23)[nH]c2ccccc12 | 103%
O=C1Cc2c([nH]c3ccc(Br)cc23)-c2ccccc2N1 | 91.5%
Oc1cccc(-c2nc(N3CCOCC3)c3oc4ncccc4c3n2)c1 | 79.1%
O=c1cc(N2CCOCC2)oc2c(-c3ccccc3)cccc12 | 82.3%

Block 4 — tested at: 1 µM
SMILES: CCC(=O)N[C@H]1CC[C@@H](C(=O)N(C)c2ccc(-c3nc4ccccc4o3)cc2)C1
target | assay | remaining binding [%]
TNK1 (Homo sapiens, UniProt Q13470) | cell-free assay, competition with immobilised ligand | 100
CLK1 (Homo sapiens, UniProt P49759) | cell-free assay, competition with immobilised ligand | 93
MAP3K14 (Homo sapiens, UniProt Q99558) | cell-free assay, competition with immobilised ligand | 92
LRRK2 (Homo sapiens, UniProt Q5S007) | cell-free assay, competition with immobilised ligand | 71
Tyrosine-protein kinase JAK2, JH1 (JAK2, Homo sapiens, UniProt O60674) | cell-free assay, competition with immobilised ligand | 70
AAK1 (Homo sapiens, UniProt Q2M2I8) | binding | 100
MAP4K4 (Homo sapiens, UniProt O95819) | cell-free assay, competition with immobilised ligand | 91
ULK1 (Homo sapiens, UniProt O75385) | cell-free assay, competition with immobilised ligand | 78
AXL (Homo sapiens, UniProt P30530) | cell-free assay, competition with immobilised ligand | 87
DYRK1A (Homo sapiens, UniProt Q13627) | cell-free assay, competition with immobilised ligand | 63
DDR1 (Homo sapiens, UniProt Q08345) | cell-free assay, competition with immobilised ligand | 100
PNCK (Homo sapiens, UniProt Q6P2M8) | cell-free assay, competition with immobilised ligand | 92
GAK (Homo sapiens, UniProt O14976) | cell-free assay, competition with immobilised ligand | 100
STK3 (Homo sapiens, UniProt Q13188) | cell-free assay, competition with immobilised ligand | 100
TNNI3K (Homo sapiens, UniProt Q59H18) | cell-free assay, competition with immobilised ligand | 100
TGFBR2 (Homo sapiens, UniProt P37173) | cell-free assay, competition with immobilised ligand | 89
LYN (Homo sapiens, UniProt P07948) | cell-free assay, competition with immobilised ligand | 100
NTRK1 (Homo sapiens, UniProt P04629) | cell-free assay, competition with immobilised ligand | 75
EPHA2 (Homo sapiens, UniProt P29317) | cell-free assay, competition with immobilised ligand | 100
EPHB6 (Homo sapiens, UniProt O15197) | cell-free assay, competition with immobilised ligand | 100
